Measured values gathered from unrelated publications.
A part holds a random share of what one study measured. Positions count from the first letter of the parent shown.

Series 1 — method: EMSA with sequencing; form: double-stranded DNA, one strand shown; medium: in vitro; tested at: 10 and 20 nM; baseline: negative control set to 0; direction: higher = stronger binding; quantity: normalised bound fraction
Target: Hepatocyte nuclear factor 3-alpha (Foxa1, Mus musculus, UniProt P35582, residues 1-468, full length assumed)
Notes: whole designed probe, mean of two concentrations, ends assumed
All sequences stand within: GTGAGCGGTGCCCATTGATGGGGAAC … TTTCACTGGGATCGTGGGGAC
Residues (chain): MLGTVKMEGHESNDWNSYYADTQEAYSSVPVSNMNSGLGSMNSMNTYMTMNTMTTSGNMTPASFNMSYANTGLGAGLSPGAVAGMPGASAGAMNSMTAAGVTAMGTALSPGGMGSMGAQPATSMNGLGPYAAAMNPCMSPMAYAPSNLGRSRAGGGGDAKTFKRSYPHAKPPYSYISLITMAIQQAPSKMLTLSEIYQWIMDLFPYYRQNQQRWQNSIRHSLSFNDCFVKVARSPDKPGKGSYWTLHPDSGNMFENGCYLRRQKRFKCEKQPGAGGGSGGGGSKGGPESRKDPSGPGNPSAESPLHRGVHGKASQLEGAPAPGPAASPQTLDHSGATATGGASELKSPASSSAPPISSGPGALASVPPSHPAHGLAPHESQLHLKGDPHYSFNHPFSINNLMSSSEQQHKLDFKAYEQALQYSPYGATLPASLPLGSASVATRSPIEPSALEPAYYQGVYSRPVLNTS
Strand = TAACCGGAGCGTGCACACCCGCCTGCGAGGCTGACCCGAGCGCGTCCCACCCAAGGTCGCCCAGCCCCGCGGGCGTTTACTTTTCAAAGGTCGAGAGTACACAGTCTGAGCCGGAGCTGCCCCTTCACTTCTGGAGCCTCGCCCAACTTCTCACCCTCGGCTCGCCCGCCGGCGCAGCCCCTGGGAGTTCCGT; result = 0.0324 ratio
Strand = GGGACAGATTACTCTCTGTACAGAGTAAGCCCCAGGGACTTTTCTGGTTGCAAAAGTAATCCTGGTACTTTCTGGATTTTCACTAGATTAAAGTAATCTAGAACAATATAACAGGCAAACTCCTTAAGTTAGACATCACTTACACATATCATAAGAGGAAAATAATTTATAAATGTTCCCAAATTTTCCTCCA; result = -0.0643 ratio
Strand = ATCTTCCCCCTCTTCCTTGCCCCACCAGCTCACCTTCCCGGGTTGTTTACTTTGAGGAAATTAATATAAGCCGGCATTCGTTAACCCTCTTCTGGCGCAAACTGCACATTGGTCTGGATGAATCATGGTCCTTTGGCGACGCCAGGCTCCGGGAGAGCAAAGCACCGTGTCAGGGCCATGATCCGGGGTGGCC; result = 0.231 ratio
Strand = GGGCCACCTTCCCTCCCTGCGCCAAGGCCTGATCGGACTGGGAGATAAACTGCACTGGCAGCTGTCCTGGCAGAGCTCTGAATCACTGCTGTGCAAACATGACCCTCCTTCACTGCGACTGCCAGCTTTGTTATCTAGAATGCAAACACAATGCAACCATCCTTAGCTCCAGATTAACAACAACAAAAACATC; result = 0.383 ratio
Strand = CCCTCATCCTGGGTGTCGGGGTGGGAGGTGTTCTCATCATGAATGGGAGGCGTACCCAGATCCAGCTCTGCCTTTTTTTAACCAAACCAGAGTGTAAACAAATGGCTGGTGACTCACCATTAATCGACATAGCAAGATATGATACATGCCAGGAGAGAAAAAGAAAGTGCTGATGGAAAAATAATCTCATTAG; result = 0.3 ratio
Strand = ATCTTCCCCCTCTTCCTTGCCGCTCCCCAACACCTTCCCGGGTTATTTGCAGATAGGAAAATAAATAAAGCCGGCATTCGTTAACCCTCTTCTGGCGCAAACTGCTGTTTGCTCTGGATGAATCATGGTCCTTTGGCGACGCCAGGCTCCGGGAGAGCAAAGCACCGTGTCAGGGCCATGATCCGGGGTGGCC; result = 0.314 ratio
Strand = TTTCCAGCCCTTAGTTTCTGGCATTTAACCTGACTCTGGTCCCTGAATGGCATGGGAGTGCTTTCAACCACAGGTTTCCACATTCATGCAAAAGCAAACAAGTGCTGACTCATTCTGATCTACAGAGATCTTTATTTGCTTTGTGTTTCCAATGGAGAAAGAGCTTGGGAAGGGAGGATCCTAATTGTCTAAA; result = 0.484 ratio
Strand = GATGTTAGCAATCAAAATACTTTTCAAAACATCTGAGTCTACAGAGGCTGATTTGAGCACATCCGGAGAATTGGGCTCCAAAAATATTAAAAGTAATCTGGGACATAAATTGTATGGATATATTATTCTAAATATTCCCATCTTTTCTCTGTTGCAAGTTTGTGAATGTGGGTGGAATGGGCTTATTAATGGA; result = -0.0305 ratio

Series 2 — method: protein binding microarray; form: double-stranded DNA, one strand shown; medium: in vitro; tested at: not given; baseline: not given; direction: higher = stronger binding; quantity: E-score
Target: Histone acetyltransferase KAT6A, winged helix 1, GST fusion (KAT6A, Homo sapiens, UniProt Q92794, residues 1-85)
Notes: 8-mer, flanks averaged, mean of 2 arrays, mostly near background
Residues (chain): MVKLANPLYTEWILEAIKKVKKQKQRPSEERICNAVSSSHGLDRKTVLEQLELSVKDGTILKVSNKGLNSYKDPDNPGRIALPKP
Strand = ATTAAGGG; result = -0.106
Strand = CAAATTAG; result = -0.108
Strand = CTGACCAA; result = -0.232
Strand = CACTGGCG; result = -0.0203
Strand = CGTCTCTC; result = 0.0664
Strand = CCGCGGAC; result = 0.407
Strand = GAAGATCC; result = -0.127
Strand = ACAAATCA; result = -0.0953
Strand = AACCATGC; result = 0.0107
Strand = CCTAGTTA; result = -0.076
Strand = GTTCTGCA; result = -0.0174
Strand = ATGAAGGA; result = -0.181
Strand = CCACGCTC; result = 0.0502
Strand = CGCCGAGA; result = 0.309
Strand = GAACTCAC; result = -0.188

Series 3 — target: CCNF, cyclin fold, Cln2 fusion (human); method: yeast growth competition, sequencing; medium: yeast; notes: strong parent motif; baseline: not given; direction: higher = stronger binding; quantity: normalised enrichment score
Starting sequence: E2F1 docking peptide (human); PPVKRRLDFETDH
Change = PPVKRRLDFEMDH [T11M]; result = 7.35
Change = PPVKRRLDFMTDH [E10M]; result = 8.07
Change = PPVKRRTDFETDH [L7T]; result = 0.151
Change = PPVKRRLDFEEDH [T11E]; result = 6.65
Change = PPYKRRLDFETDH [V3Y]; result = 7.17
Change = PPVKRRLDSETDH [F9S]; result = 1.16

Single results of other studies
Molecule = PhoQ, residues 284 288 289 292 302 303 ALASRC; target = PhoP, residues 12 14 15 18 19 LHATL (Escherichia coli, UniProt P23836); assay = Sort-seq, refers to: YFP reporter; system = E. coli; setting = PhoQ-PhoP variant library, added: 10 µM Mg2+; how to read = baseline: high Mg2+ state, higher = stronger signaling; quantity = fold induction; result = 15.9

Excerpt of the above (series 2):
Strand = AACCATGC; result = 0.0107
Strand = CCTAGTTA; result = -0.076
Strand = GTTCTGCA; result = -0.0174
